Measurements collected from several papers.
± marks the error that the study gave.

CC(C)[C@@H]1NC(=O)c2coc(n2)-c2coc(n2)-c2coc(n2)C/C=C/c2coc(n2)-c2coc(n2)-c2coc1n2: “melting temperature shift” 0.1 °C (salmon testes duplex DNA; UV melting; 15 µM, pH 7.5, with: 150 mM K+; relative to: DNA without compound).
CN[C@H](CC(C)C)C(=O)N[C@H]1C(=O)N[C@@H](CC(N)=O)C(=O)N[C@H]2C(=O)N[C@H]3C(=O)N[C@H](C(=O)N[C@H](C(=O)O)c4cc(O)cc(O)c4-c4cc3ccc4O)[C@H](O)c3ccc(c(Cl)c3)Oc3cc2cc(c3O[C@@H]2O[C@H](CO)[C@@H](O)[C@H](O)[C@H]2O[C@H]2C[C@](C)(N)[C@H](O)[C@H](C)O2)Oc2ccc(cc2Cl)[C@H]1O has a detection limit of 10 nM (D-Ala peptide; cantilever array; phosphate buffer; pH 7.4, 25 °C).
For O=C1C=CC(=O)C=C1, “maximal peptide depletion” read -119% (cysteine peptide Ac-RFAACAA-COOH; DPRA RapidFire-MS/MS; 24 h, pH 7.5, with: 5.0 µM cysteine peptide).
Under “acylation rate constant k2/Ks”, CC(C)(O/N=C(\C(=O)N[C@@H]1C(=O)N2C(C(=O)[O-])=C(C[n+]3ccccc3)CS[C@H]12)c1csc(N)n1)C(=O)O is recorded as 780 ± 150 M⁻¹ s⁻¹ (Neisseria gonorrhoeae PBP2 H041; 1 h, pH 8.0, room temperature, with: Bocillin-FL competitor).
For CNC[C@H](N)C(=O)O, the Km was 1400 ± 320 µM (ASCT2; anion current, substrate; HEK293 transfected; pH 7.40, 0 mV).
For CC[C@H](C)[C@H](NC(=O)[C@@H](CCCNC(=N)N)NC(=O)[C@H](CCCNC(=N)N)NC(=O)[C@@H]1CCCN1C(=O)[C@@H]1CCCN1C(=O)[C@H](CCCNC(=N)N)NC(=O)[C@@H]1CCCN1C(=O)[C@H](CCCNC(=N)N)NC(=O)[C@@H]1CCCN1C(=O)[C@H](CC(C)C)NC(=O)[C@H](Cc1ccc(O)cc1)NC(=O)[C@@H]1CCCN1C(=O)[C@@H]1CCCN1C(=O)[C@H](CCCCN)NC(=O)[C@H](CC(=O)O)NC(=O)[C@@H](N)C(C)C)C(=O)N[C@@H](Cc1ccc(O)cc1)C(=O)N[C@@H](CC(N)=O)C(=O)N[C@H](CCCNC(=N)N)C(N)=O, the Kd was 36 ± 14 nM (Escherichia coli BW25113 70S ribosome; fluorescence polarization; 90 min).
The inhibition of Clc1ccc(-c2ccc(Cl)cc2Cl)cc1 is reported as 41% (aequorin, Aequorea victoria; bioluminescence, inhibitor; 1.0×100 µM, with: coelenterazine; relative to: no inhibitor).
`WKAHNKG` gave a recovery yield of 79.8% (adeno-associated virus 2; capsid binding, bind-and-elute chromatography; peptide; peptide ligand resin, MgCl2 elution).
For C[C@H](NC(=O)Cc1cc(F)cc(F)c1)C(=O)N[C@H]1N=C(c2ccccc2)c2ccccc2N(C)C1=O, “half-life of Aβ40 decline” read roughly 2.3 h (γ-secretase; inhibitor, microdialysis; J20 hAPP transgenic mice, 24 months, hippocampal interstitial fluid; intraperitoneal, 3 mg/kg).
CO/N=C(\C(=O)N[C@@H]1C(=O)N2C(C(=O)[O-])=C(C[N+]3(C)CCCC3)CS[C@H]12)c1csc(N)n1 — result for “acylation rate constant k2/Ks”: 630 ± 50 M⁻¹ s⁻¹ (Neisseria gonorrhoeae PBP2 H041; 1 h, pH 8.0, room temperature, with: Bocillin-FL competitor).
CC[C@H](C)[C@H](NC(=O)[C@H](CCCNC(=N)N)NC(=O)[C@H](C)NC(=O)[C@H](Cc1c[nH]c2ccccc12)NC(=O)[C@H](CO)NC(=O)CNC(=O)[C@H](CC(C)C)NC(=O)[C@H](Cc1ccccc1)NC(=O)[C@H](CCCNC(=N)N)NC(=O)[C@H](CCCNC(=N)N)NC(=O)[C@H](Cc1ccccc1)NC(=O)CNC(C)=O)C(=O)N[C@@H](Cc1ccc(O)cc1)C(=O)N[C@@H](CCCNC(=N)N)C(=O)N[C@@H](C)C(=O)N[C@@H](Cc1ccccc1)C(=O)N[C@H](C(=O)NCC(N)=O)C(C)C: “association rate constant” 67200 M⁻¹ s⁻¹ (LPS; surface plasmon resonance; Escherichia coli, 026:B6; 25 °C).
Under “acylation rate constant k2/Ks”, N[C@@H](C(=O)N[C@@H]1C(=O)N2C(C(=O)O)=C(Cl)CS[C@H]12)c1ccccc1 is recorded as 29 ± 4 M⁻¹ s⁻¹ (Neisseria gonorrhoeae PBP2 H041; 1 h, pH 8.0, room temperature, with: Bocillin-FL competitor).
O=[N+]([O-])c1ccc(Cl)c([N+](=O)[O-])c1 — result for “maximal peptide depletion”: -199% (cysteine peptide Ac-RFAACAA-COOH; DPRA RapidFire-MS/MS; 24 h, pH 7.5, with: 5.0 µM cysteine peptide).

Excerpt of the above:
For CNC[C@H](N)C(=O)O, the Km was 1400 ± 320 µM (ASCT2; anion current, substrate; HEK293 transfected; pH 7.40, 0 mV).
O=[N+]([O-])c1ccc(Cl)c([N+](=O)[O-])c1 — result for “maximal peptide depletion”: -199% (cysteine peptide Ac-RFAACAA-COOH; DPRA RapidFire-MS/MS; 24 h, pH 7.5, with: 5.0 µM cysteine peptide).
